# Measurements gathered from unrelated publications.
# Each numbered part is a random draw from the data of one study; scales do not carry over between parts. Changes are numbered by the printed parent chain.

# Series 1 — method: protein-binding microarray; molecule type: double-stranded DNA, one strand shown; matrix: in vitro; concentration: 2200 nM top; setting: 60-bp whole probe; together with: salmon DNA 0.4 mg/ml; baseline: random background probes; direction: higher = stronger binding; shared flanks, not repeated: GCCTAGCAC … GTCTTGATTCGCTTGACGCTGCTG
# Target: Interferon regulatory factor 7, full length, phosphomimetic (IRF7, Homo sapiens, UniProt Q92985, residues 1-503, S471D/S472D/S475D/S476D/S477D/S483D/S484D/S487D)
# Residues (chain): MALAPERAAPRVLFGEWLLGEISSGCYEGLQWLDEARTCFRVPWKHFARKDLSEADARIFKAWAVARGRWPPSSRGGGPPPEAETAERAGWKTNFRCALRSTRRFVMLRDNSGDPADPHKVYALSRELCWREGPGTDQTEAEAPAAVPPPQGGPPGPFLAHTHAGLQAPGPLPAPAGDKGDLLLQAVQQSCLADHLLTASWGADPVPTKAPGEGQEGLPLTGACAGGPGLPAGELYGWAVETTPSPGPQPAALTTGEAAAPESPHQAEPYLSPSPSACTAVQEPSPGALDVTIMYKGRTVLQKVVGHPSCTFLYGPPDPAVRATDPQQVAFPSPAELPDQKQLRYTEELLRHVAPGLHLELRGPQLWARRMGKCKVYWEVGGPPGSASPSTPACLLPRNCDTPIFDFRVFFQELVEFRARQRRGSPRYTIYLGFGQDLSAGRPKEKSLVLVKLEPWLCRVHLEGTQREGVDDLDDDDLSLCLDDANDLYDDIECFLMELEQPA
Sequence,fitted relative affinity [z-score]
TTAGGACTGGAGTATCGGTTAGTGCTA,-0.274
TCATCTTTCCCTGCCCCACTGTGCTAG,1.94
GACGATTTCAGTTTCGAGTCGTGCTAG,8.27
TCACATCTGCAACATCTAACTGTGCTA,1.04
TTAGGACTGGGGTTGCGGTTAGTGCTA,-0.574
TTAGATTCCAGTTTCGTTTAGTGCTAG,7.37
AAAAATTAGTGTTTCCCCTAGTGCTAG,0.0219
TTAGCTATCGACACTGGGTTAGTGCTA,0.0366

# Series 2 — method: universal PBM; molecule type: double-stranded DNA, one strand shown; matrix: in vitro; concentration: not given; direction: higher = stronger binding
# Target: Sal-like protein 4, full length isoform B (SALL4, Homo sapiens, UniProt Q9UJQ4-2, residues 1-616)
# Setting: 8-mer, flanks averaged, mean of replicates
# Residues (chain): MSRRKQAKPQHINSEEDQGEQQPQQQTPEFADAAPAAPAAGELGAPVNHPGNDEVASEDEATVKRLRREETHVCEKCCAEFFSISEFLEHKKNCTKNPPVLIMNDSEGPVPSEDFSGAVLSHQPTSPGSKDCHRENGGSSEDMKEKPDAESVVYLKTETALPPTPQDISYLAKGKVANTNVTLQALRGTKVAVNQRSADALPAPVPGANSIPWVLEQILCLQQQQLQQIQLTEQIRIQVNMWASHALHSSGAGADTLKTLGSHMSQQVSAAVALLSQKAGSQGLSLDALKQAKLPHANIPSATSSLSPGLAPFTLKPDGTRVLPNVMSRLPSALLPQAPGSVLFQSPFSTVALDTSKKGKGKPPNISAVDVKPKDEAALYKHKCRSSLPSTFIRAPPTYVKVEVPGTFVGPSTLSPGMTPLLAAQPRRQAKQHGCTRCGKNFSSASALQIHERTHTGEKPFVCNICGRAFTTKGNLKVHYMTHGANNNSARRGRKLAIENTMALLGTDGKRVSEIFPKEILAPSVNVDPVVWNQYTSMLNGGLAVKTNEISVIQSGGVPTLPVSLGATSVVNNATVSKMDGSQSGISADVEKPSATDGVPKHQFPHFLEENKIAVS
Sequence,E-score
CGCCTTAA,-0.127
ATCGCTGA,0.0463
AAAGGAAG,-0.116
GAACCGTA,-0.132
AATAAGGT,0.169
CAAACTTA,0.175
CCCGATCA,-0.169
CCGACTAA,-0.0143

# Series 3 — method: RNA Bind-n-Seq; molecule type: RNA; matrix: in vitro; concentration: 20 nM; setting: 6-mer, flanks averaged, single round; together with: 150 mM LiCl; baseline: input library; direction: higher = stronger binding
# Target: TAR DNA-binding protein 43, full length, His tag (TARDBP, Homo sapiens, UniProt Q13148, residues 1-414)
Sequence,6-mer enrichment (R)
CGGGCU,1
AAACUG,0.843
CUGUGU,1.28
GCGGAA,0.978
UCCCAA,0.921
UCUGUU,1.05
AGAGAG,1.1
CCGCUC,0.909

# Single results of other studies
# Parent: viral docking peptide; KGVKRKLFAEDSS; partner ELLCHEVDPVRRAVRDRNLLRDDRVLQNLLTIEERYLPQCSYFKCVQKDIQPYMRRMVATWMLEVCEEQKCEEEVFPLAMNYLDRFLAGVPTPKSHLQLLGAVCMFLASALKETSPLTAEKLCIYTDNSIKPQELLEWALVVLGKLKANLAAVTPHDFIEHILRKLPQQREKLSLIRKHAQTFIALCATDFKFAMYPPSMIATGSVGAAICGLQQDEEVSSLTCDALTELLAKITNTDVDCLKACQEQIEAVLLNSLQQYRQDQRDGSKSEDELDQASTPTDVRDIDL
Substitution,target,assay,system,conditions,scale,quantity,value
K6L,"CCND2, cyclin fold, Cln2 fusion (human)","yeast growth competition, sequencing",yeast,weak parent motif,"baseline: not given, higher = stronger binding",normalised enrichment score,0.0706

# For quick reference, copied from above (series 2):
Sequence,E-score
ATCGCTGA,0.0463
AAAGGAAG,-0.116
GAACCGTA,-0.132
AATAAGGT,0.169
